Results of several laboratories.
Parts stem from different laboratories: compare values within a part only.

Series 1 — organism: VSV pseudotyped with SARS-CoV-2 spike; read-out: viral infection; tested at: concentration not given; baseline: vehicle
| Molecule | GFP-positive cells [%] |
| --- | --- |
| Sucralfate | 78.8 |
| maraviroc | 76.2 |
| bleomycin sulfate | 97.2 |

Series 2 — read-out: enzyme activity; mode: inhibitor; tested at: 20 µM; notes: hit confirmation
Target: Replicase polyprotein 1ab, main protease (rep, Severe acute respiratory syndrome coronavirus 2, UniProt P0DTD1)
| Compound | inhibition [%] |
| --- | --- |
| CC[C@H](CO)Nc1nc(NCc2ccc(-c3ccccn3)cc2)c2ncn(C(C)C)c2n1 | 99.9 |
| CC(CN1CC(=O)NC(=O)C1)N1CC(=O)NC(=O)C1 (centres unmarked) | 100 |
| O=[N+]([O-])/C=C/c1ccc2c(c1)OCO2 | 97.4 |

Series 3 — method: RNA Bind-n-Seq; molecule type: RNA; sample: in vitro; tested at: 200 nM; notes: whole 134-nt RNA, ends assumed; added: 150 mM KCl; baseline: input library; reading: higher = stronger binding
Target: Fragile X messenger ribonucleoprotein 1, C-terminal low-complexity region (Fmr1, Mus musculus, UniProt P35922)
| Oligonucleotide | log2 enrichment |
| --- | --- |
| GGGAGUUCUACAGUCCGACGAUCUAACUUUGGAGGAGGAUCUGAUGGAUAUGGCAGUGGACGUGGAUUUGGGGAUGGCUAUAAUGGGUAUGGAGGAGGACCUGGAGGUGGCAAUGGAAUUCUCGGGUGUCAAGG | 0.341 |
| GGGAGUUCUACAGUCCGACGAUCUUUUGAGGAAAGGAUGAAGGAGCUCAGAGAAGAGGUAAGGGUCUCCUAUCCUUCCCCUCUCCCCCAGAUUUGAGUUUUAUGUUAUGAAUCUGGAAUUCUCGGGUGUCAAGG | -0.531 |
| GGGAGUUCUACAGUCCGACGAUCUGGGAGGUGGAUUUUGUUUAUUUUUUUAGCUCAUUUCCAGGGGUGGGAAUUUUUUUUUAAUAGGUGUCAUGAAUAAAGUUGUUUUUGAAAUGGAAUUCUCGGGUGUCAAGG | 0.107 |
| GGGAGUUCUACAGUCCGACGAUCCCUGUGCUACACAUCGUAUGUACCGAAUCGGGGAAAAAGGGGAAAAAGGGGUUUUUGGGGAAAGUAUUAUGUUACGCCGUUCGGAUCUGCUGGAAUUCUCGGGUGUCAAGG | 0.278 |
| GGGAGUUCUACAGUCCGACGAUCGCAGGAAGUAAAAACAAAUGGAAAUGAUUCGGAUAGUGGCAGGGGUGGGGGUUGCUAAGGAAAGGGUGGGAUGGGAGUGGGUAAAGAGUUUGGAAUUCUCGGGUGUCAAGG | 0.515 |
| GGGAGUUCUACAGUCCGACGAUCAAGUCCUGUGCUACACAUCGUAUGUACCGAAUCGGGUUUGGGUGGGAAAAAAAGGGAAAGUAUUAUGUUACGCCGUUCGGAUCUGCACUUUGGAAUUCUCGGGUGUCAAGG | 0.537 |
| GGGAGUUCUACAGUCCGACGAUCACCAUGCAGGUGGGCAUCUUUGGGAAGUGGGGCAAGGGGGGGAUAGGGAGGGGGGUAACACUAAAGGAACAGGUGGUCCCAGGUCGUUUCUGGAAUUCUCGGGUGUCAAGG | 0.777 |
| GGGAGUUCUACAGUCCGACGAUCUGGCCCUGGUGGCAUGCGGGGAGGAAGAGGUGGCCUCAUGGAUCGUGGUGGUCCCGGUGGAAUGUUCAGAGGUGACCGUGGUGGAGACAGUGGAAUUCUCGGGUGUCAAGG | -0.0267 |

Series 4 — mode: inhibitor; tested at: 20 µM
Target: Replicase polyprotein 1ab, nsp13 helicase (rep, Severe acute respiratory syndrome coronavirus 2, UniProt P0DTD1)
| Structure (SMILES) | inhibition [%] |
| --- | --- |
| CCCCCCCCCCCCCCCC(=O)OC[C@H](O)[C@H]1OC(=O)C(O)=C1O | 19.3 |
| CC(C)(C)C(=O)OCOC(=O)[C@@H]1N2C(=O)C[C@H]2S(=O)(=O)C1(C)C | 3.11 |
| Cc1nc2ccc(Oc3ccc(F)cc3)cc2c(=O)n1C[C@H]1CCCN(C(C)C)C1 | 10.9 |
| Nc1nc(-c2nn(Cc3ccccc3F)c3ncccc23)ncc1C1CC1 | 14.7 |
| c1nc(CC2CCNCC2)c[nH]1 | 3.71 |
| NC[C@@H]1O[C@H](O[C@H]2[C@@H](O)[C@H](O[C@@H]3[C@@H](O)[C@H](N)C[C@H](N)[C@H]3O[C@H]3O[C@H](CO)[C@@H](O)[C@H](O)[C@H]3N)O[C@@H]2CO)[C@H](N)[C@@H](O)[C@@H]1O | 8.46 |
| CCS(=O)(=O)c1cccc(-c2cc(C(=O)NC3CCN(C)CC3)c(C)c3[nH]c4ncc(C)cc4c23)c1 | 13.5 |
| CN1CCN(CC/C=C2/c3ccccc3Sc3ccc(S(=O)(=O)N(C)C)cc32)CC1 | -4.35 |
| N[C@@H](Cc1ccc(I)cc1)C(=O)O | 1.04 |
| Cc1cc2cc3c(C)cc(=O)oc3c(C)c2o1 | 1.92 |
| CN(C)CCOC(c1ccc(Cl)cc1)c1ccccn1 (centres unmarked) | 0.56 |
| C=C[C@H]1CN2CC[C@H]1C[C@H]2[C@H](O)c1ccnc2ccccc12 | -21.3 |

A few entries again (series 4):
| Structure (SMILES) | inhibition [%] |
| --- | --- |
| CCCCCCCCCCCCCCCC(=O)OC[C@H](O)[C@H]1OC(=O)C(O)=C1O | 19.3 |
| CC(C)(C)C(=O)OCOC(=O)[C@@H]1N2C(=O)C[C@H]2S(=O)(=O)C1(C)C | 3.11 |
| Cc1nc2ccc(Oc3ccc(F)cc3)cc2c(=O)n1C[C@H]1CCCN(C(C)C)C1 | 10.9 |
